Published values of several laboratories.
Parts stem from different laboratories: compare values within a part only.

Study 1 — method: aptamer microarray, sandwich; molecule type: DNA with 2'F-ANA; matrix: in vitro; tested at: 200 nM; together with: Cy3 exosite-II aptamer, 400 nM; reading: higher = stronger binding; endpoint: mean fluorescence intensity; oligonucleotide: GGTTGGTGTGGTTGG
Target: Prothrombin, mature alpha-thrombin (F2, Homo sapiens, UniProt P00734)
Notes: whole 15-mer aptamer, many near background
Modification = 2'F-ANA at 1 3 4 6 7 9 10 12 13 14; result = 49.8 a.u.
Modification = 2'F-ANA at 2 3 4 7 8 9 12 15; result = 966 a.u.
Modification = 2'F-ANA at 2 3 4 8 10 11 12 13 14 15; result = 154 a.u.
Modification = 2'F-ANA at 1 3 4 5 6 8 12 13; result = 140 a.u.
Modification = 2'F-ANA at 5 6 9; result = 78.9 a.u.
Modification = 2'F-ANA at 1 2 5 6 7 9 10 11 15; result = 46.8 a.u.
Modification = 2'F-ANA at 2 4 5 9 13 14; result = 42.2 a.u.

Study 2 — method: universal PBM; molecule type: double-stranded DNA, one strand shown; matrix: in vitro; tested at: 600 nM; reading: higher = stronger binding; endpoint: E-score
Target: Sal-like protein 4, full length isoform A (SALL4, Homo sapiens, UniProt Q9UJQ4, residues 1-1053)
Chain of UniProt Q9UJQ4 (whole entry, looked up): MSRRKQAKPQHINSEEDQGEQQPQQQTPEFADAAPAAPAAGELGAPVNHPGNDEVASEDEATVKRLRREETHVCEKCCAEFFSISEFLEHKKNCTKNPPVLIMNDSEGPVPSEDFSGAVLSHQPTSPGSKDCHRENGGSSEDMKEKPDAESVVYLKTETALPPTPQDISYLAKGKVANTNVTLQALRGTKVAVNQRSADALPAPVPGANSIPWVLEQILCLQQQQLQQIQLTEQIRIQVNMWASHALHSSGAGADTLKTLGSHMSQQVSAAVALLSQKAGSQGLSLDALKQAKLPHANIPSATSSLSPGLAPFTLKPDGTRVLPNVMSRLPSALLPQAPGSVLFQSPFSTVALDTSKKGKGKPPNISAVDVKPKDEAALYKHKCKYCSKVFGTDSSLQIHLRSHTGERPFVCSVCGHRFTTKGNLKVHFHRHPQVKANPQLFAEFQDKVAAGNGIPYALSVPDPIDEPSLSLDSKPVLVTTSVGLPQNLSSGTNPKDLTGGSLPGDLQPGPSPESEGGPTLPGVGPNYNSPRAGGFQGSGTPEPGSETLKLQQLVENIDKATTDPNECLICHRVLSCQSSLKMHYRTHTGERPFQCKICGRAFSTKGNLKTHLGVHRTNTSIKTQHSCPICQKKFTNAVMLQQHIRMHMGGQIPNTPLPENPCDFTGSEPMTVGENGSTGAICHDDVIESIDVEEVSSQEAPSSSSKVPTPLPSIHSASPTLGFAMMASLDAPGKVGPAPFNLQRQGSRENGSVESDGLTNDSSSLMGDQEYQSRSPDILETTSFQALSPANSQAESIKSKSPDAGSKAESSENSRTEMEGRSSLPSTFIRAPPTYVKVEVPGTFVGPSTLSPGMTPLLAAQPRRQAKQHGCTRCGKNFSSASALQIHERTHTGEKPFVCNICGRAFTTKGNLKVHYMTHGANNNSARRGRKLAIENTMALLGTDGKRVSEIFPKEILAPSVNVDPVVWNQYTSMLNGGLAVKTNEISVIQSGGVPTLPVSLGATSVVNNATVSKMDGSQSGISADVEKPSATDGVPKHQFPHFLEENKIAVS
Notes: 8-mer, flanks averaged, mean of replicates
Oligonucleotide = CAGGATGA; result = -0.0341
Oligonucleotide = GCACGATA; result = 0.0722
Oligonucleotide = ACCGTACG; result = -0.21
Oligonucleotide = CTGCGTAC; result = -0.137
Oligonucleotide = CAAGCCCG; result = -0.4
Oligonucleotide = ACGTCCCT; result = -0.089
Oligonucleotide = ATCGAAAC; result = 0.0446

Study 3 — method: RNA Bind-n-Seq; molecule type: RNA; matrix: in vitro; tested at: 365 nM; baseline: no-protein control; reading: higher = stronger binding; endpoint: RBNS enrichment (R)
Target: RNA binding protein fox-1 homolog 2, RRM domain, GST-SBP tag (RBFOX2, Homo sapiens, UniProt O43251-10, residues 100-194)
Notes: natural RNA segment, single round, ends assumed
Shared flanks, not repeated: GGGAGUUCUACAGUCCGACGAUC … UGGAAUUCUCGGGUGCCAA
Construct (chain): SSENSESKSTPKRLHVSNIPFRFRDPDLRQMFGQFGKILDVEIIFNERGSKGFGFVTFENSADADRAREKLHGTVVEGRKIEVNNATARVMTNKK
Oligonucleotide = GCCCAUGGCCGUGGGUCUCCUCGCUGAGCUGCAACCUGAUGCAUCGACAUUUAAUGUUGGCAGUGUCAGGCCUCUGACUUGAGACUACUGCUGUCGCAGAUCCUCUCUCU; result = 0.186
Oligonucleotide = GGUCAUUUUUUGUAAUUUUCUUUUUAAUUACUUUAGAGAGCUAGGGAUGCAAAUGUUUUCAGUUAGAAAGCCUUUAUUUACUUUUGGAAAUUGAACAAGAAAUGCAUCUG; result = 0.758
Oligonucleotide = AUUUGCCAGAGGGGACAGAAGCAUCUUGUGGCAUUUCCCAUGUGGUGGCCUCCAUGGCACCCACUCUCCCAGUUCCUAUGCAGGUUAUCCCCUGUGGUUUCUCCCCACAU; result = 1.03
Oligonucleotide = AGUUGGAAUGCUUCUACCCUGGCUUCUAAAUUCAGGCCUGUGGGUAAUCCCAAGUAUACAGGAAAUUGUGGGGUAGGCUGUCUCUCGUGAAUUGAGUUCUGCUGGGGCUA; result = 0.411
Oligonucleotide = CUGUGGAAGAAGGAAGCUUUUGCGGUUGUUUCCUUGCUCCUGCUAGUAAGUCCAUGCCUUCAAUAGGAUUAGAGCCAACUUCAGGAUUCUGGAAUGUUAGGAAGAGCAGC; result = 0.886

Mixed results
Molecule = PhoQ, residues 284 288 289 292 302 303 AANNSF; target = PhoP, residues 12 14 15 18 19 SMASL (Escherichia coli, UniProt P23836); assay = Sort-seq, refers to: YFP reporter; system = E. coli; conditions = PhoQ-PhoP variant library, together with: 10 µM Mg2+; scale = baseline: high Mg2+ state, higher = stronger signaling; endpoint = fold induction; result = 1.21

Excerpt of the above (study 3):
Oligonucleotide = GCCCAUGGCCGUGGGUCUCCUCGCUGAGCUGCAACCUGAUGCAUCGACAUUUAAUGUUGGCAGUGUCAGGCCUCUGACUUGAGACUACUGCUGUCGCAGAUCCUCUCUCU; result = 0.186
Oligonucleotide = GGUCAUUUUUUGUAAUUUUCUUUUUAAUUACUUUAGAGAGCUAGGGAUGCAAAUGUUUUCAGUUAGAAAGCCUUUAUUUACUUUUGGAAAUUGAACAAGAAAUGCAUCUG; result = 0.758
Oligonucleotide = AUUUGCCAGAGGGGACAGAAGCAUCUUGUGGCAUUUCCCAUGUGGUGGCCUCCAUGGCACCCACUCUCCCAGUUCCUAUGCAGGUUAUCCCCUGUGGUUUCUCCCCACAU; result = 1.03
